Experimental data collected from several papers.
Compare with care: the assays were run in different laboratories. ± marks the error that the study gave.
Cell line: RAW264.7

SMILES	assay	system	setting	quantity	value
COC1=C[C@@H]2[C@@H]3Cc4c(Br)cc(OC)c(OC(=O)c5ccncn5)c4[C@]2(CCN3C)CC1=O	cytotoxicity, MTT	–	24 h	IC50	> 100 µM
CC/C=C\C/C=C\C/C=C\CCCCCCCC(=O)OC[C@@H](O)CO[C@@H]1O[C@H](CO)[C@H](O)[C@H](O)[C@H]1O	cell viability, MTT	serum-free medium	20 h	LD50	> 100 µM
CC(C)[C@@H]1NC(=O)CNC(=O)[C@H](CC(N)=O)NC(=O)[C@H](CCCNC(=N)N)NC(=O)[C@H](Cc2ccc(O)cc2)NC(=O)[C@H](C(C)C)NC(=O)[C@@H](NC(=O)[C@@H](NC(=O)[C@H](CC(N)=O)NC(=O)[C@H](Cc2c[nH]c3ccccc23)NC(=O)[C@H](C)NC(=O)[C@H](Cc2ccccc2)NC(=O)CNC(=O)[C@H](CCCCN)NC(=O)[C@H](Cc2ccccc2)NC(=O)[C@H](Cc2ccccc2)NC(=O)[C@H](CCCCN)NC(=O)OCC2c3ccccc3-c3ccccc32)C(C)C)CSSC[C@@H](C(=O)N[C@@H](Cc2c[nH]cn2)C(=O)N[C@@H](CCCNC(=N)N)C(=O)N[C@@H](CCCNC(=N)N)C(=O)N[C@@H](C)C(=O)N[C@@H](CC(N)=O)C(N)=O)NC(=O)[C@H](C(C)C)NC(=O)[C@H](CCCNC(=N)N)NC1=O	CCK-8	–	up to 128 µM, 12 h	viability	> 90%
COC1=C[C@@H]2[C@@H]3Cc4c(Br)cc(OC)c(OC(=O)c5nc(C)c(C)nc5C)c4[C@]2(CCN3C)CC1=O	cytotoxicity, MTT	–	24 h	IC50	21.9 ± 3.51 µM
O=C(/C=C/CBr)O[C@@H]1COC(=O)C1	cytotoxicity	–	–	IC50	22 µM
Cc1ccc(C(C)C)c(OC(=O)COC(=O)Cn2cnc3c2c(=O)n(C)c(=O)n3C)c1	cell growth or viability, MTT	–	50 µM, 24 h	viability	89%
CC[C@H](C)[C@H](NC(=O)[C@@H](CCCCN)NC(=O)[C@@H](CCCCN)NC(=O)[C@H](Cc1ccccc1)NC(=O)[C@H](CC(C)C)NC(=O)[C@@H](CCCCN)NC(=O)[C@H](Cc1c[nH]c2ccccc12)NC(=O)[C@H](CCCCN)NC(C)=O)C(=O)NCC(=O)N[C@@H](C)C(=O)N[C@H](C(=O)N[C@@H](CC(C)C)C(=O)N[C@H](CCCCN)C(=O)N[C@H](CCCCN)C(=O)N[C@@H](CC(C)C)C(N)=O)C(C)C	cell viability, MTT	–	1 h, 37 °C	LD50	131 ± 15 µM
COc1ccc(-n2cc(C(=O)N3C[C@]4(OC(=O)c5ccccc5NC(C)=O)CC[C@H](OC)[C@@]56[C@@H]4C[C@@H]([C@@H]35)[C@@]3(O)C[C@H](OC)[C@H]4C[C@@H]6[C@]3(O)[C@H]4OC)nn2)cc1	MTT	–	7.5 to 120 µM	cytotoxicity	not toxic
COC1=C[C@@H]2[C@@H]3Cc4ccc(OC)c(OC(=O)c5ccncn5)c4[C@]2(CCN3C)CC1=O	cytotoxicity, MTT	–	24 h	IC50	> 100 µM
N=C(N)NCCC[C@@H](NC(=O)[C@H](N)Cc1c[nH]c2ccccc12)C(=O)N[C@H](CCCCN)C(=O)N[C@H](Cc1c[nH]c2ccccc12)C(=O)N[C@H](CCCNC(=N)N)C(=O)N[C@H](CCCCN)C(=O)N[C@H](Cc1c[nH]c2ccccc12)C(=O)N[C@H](CCCNC(=N)N)C(=O)N[C@H](CCCCN)C(=O)N[C@H](Cc1c[nH]c2ccccc12)C(=O)N[C@H](CCCNC(=N)N)C(=O)N[C@H](CCCCN)C(N)=O	cytotoxicity, MTT	–	24 h	IC50	128 µM
CC[C@H](C)[C@H](NC(=O)[C@H](CCCCN)NC(=O)[C@H](CCCCN)NC(=O)[C@H](Cc1ccccc1)NC(=O)[C@H](CC(C)C)NC(=O)[C@@H](CCCCN)NC(=O)[C@H](Cc1c[nH]c2ccccc12)NC(=O)[C@H](CCCCN)NC(C)=O)C(=O)NCC(=O)N[C@@H](C)C(=O)N[C@H](C(=O)N[C@@H](CC(C)C)C(=O)N[C@H](CCCCN)C(=O)N[C@H](C(=O)N[C@@H](CC(C)C)C(N)=O)C(C)C)C(C)C	cell viability, MTT	–	1 h, 37 °C	LD50	78 µM
CCCCC/C=C\C/C=C\CCCCCCCC(=O)OC[C@H](CO[C@@H]1O[C@H](CO)[C@H](O)[C@H](O)[C@H]1O)OC(=O)CCCCCCC/C=C\C/C=C\CCCCC	cell viability, MTT	serum-free medium	20 h	LD50	> 20 µM
COC1=C[C@@H]2[C@@H]3Cc4ccc(OC)c(OC(=O)c5ccnnc5)c4[C@]2(CCN3C)CC1=O	cytotoxicity, MTT	–	24 h	IC50	> 100 µM
CC1CCC(C(C)C)C(OC(=O)CSc2nnc(Cn3cnc4c3c(=O)n(C)c(=O)n4C)o2)C1 (stereo not shown)	cell growth or viability, MTT	–	50 µM, 24 h	viability	90%
O=C(/C=C/CF)O[C@@H]1COC(=O)C1	cytotoxicity	–	–	IC50	128 µM
COc1cc(C=O)ccc1OC(=O)COC(=O)Cn1cnc2c1c(=O)n(C)c(=O)n2C	cell growth or viability, MTT	–	50 µM, 24 h	viability	90%
CCCCCCCC/C=C\CCCCc1cc(=O)c2ccccc2n1C	–	–	48 h, 50% growth inhibition	GIC50	39 ± 12 mg/L
C=CCc1ccc(OC(=O)Cn2cnc3c2c(=O)n(C)c(=O)n3C)c(OC)c1	cell growth or viability, MTT	–	50 µM, 24 h	viability	93%
COC1=C[C@@H]2[C@@H]3Cc4c(COC(=O)c5nc(C)c(C)nc5C)cc(OC)c(OC(=O)c5nc(C)c(C)nc5C)c4[C@]2(CCN3C)CC1=O	cytotoxicity, MTT	–	24 h	IC50	54.9 ± 7.77 µM
Cc1ccc(C(C)C)c(OC(=O)CSc2nnc(Cn3cnc4c3c(=O)n(C)c(=O)n4C)o2)c1	cell growth or viability, MTT	–	50 µM, 24 h	viability	93%
NCCCC[C@H](NC(=O)[C@H](Cc1ccc(O)cc1)NC(=O)[C@H](CCCCN)NC(=O)[C@H](Cc1c[nH]c2ccccc12)NC(=O)[C@H](Cc1ccccc1)NC(=O)[C@H](Cc1ccccc1)NC(=O)Cc1ccc(-c2ccccc2)cc1)C(=O)NCC(=O)N[C@@H](Cc1c[nH]cn1)C(=O)N1CCC[C@H]1C(=O)NCC(=O)NCC(=O)N1CCC[C@H]1C(=O)N[C@@H](CCC(N)=O)C(=O)N[C@@H](CC(=O)O)C(=O)N[C@@H](CC(=O)O)C(=O)N[C@@H](CC(=O)O)C(=O)N[C@@H](CC(=O)O)C(=O)N[C@@H](CC(=O)O)C(=O)N[C@@H](CC(=O)O)C(=O)O	CCK-8	–	concentration not given, 24 h	cytotoxicity	not toxic
CC1CCC(C(C)C)C(OC(=O)Cn2cc(COC(=O)Cn3cnc4c3c(=O)n(C)c(=O)n4C)nn2)C1 (stereo not shown)	cell growth or viability, MTT	–	50 µM, 24 h	viability	86%
COC1=C[C@@H]2[C@@H]3Cc4ccc(OC)c(OC(=O)[C@H](C)N)c4[C@]2(CCN3C)CC1=O	cytotoxicity, MTT	–	24 h	IC50	> 100 µM
COc1cc(C=O)ccc1OC(=O)CSc1nnc(Cn2cnc3c2c(=O)n(C)c(=O)n3C)o1	cell growth or viability, MTT	–	50 µM, 24 h	viability	92%
CNCC(=O)Oc1c(OC)ccc2c1[C@@]13CCN(C)[C@@H](C2)[C@H]1C=C(OC)C(=O)C3	cytotoxicity, MTT	–	24 h	IC50	> 100 µM

For quick reference, copied from above:
SMILES	assay	system	setting	quantity	value
COC1=C[C@@H]2[C@@H]3Cc4ccc(OC)c(OC(=O)[C@H](C)N)c4[C@]2(CCN3C)CC1=O	cytotoxicity, MTT	–	24 h	IC50	> 100 µM
CC(C)[C@@H]1NC(=O)CNC(=O)[C@H](CC(N)=O)NC(=O)[C@H](CCCNC(=N)N)NC(=O)[C@H](Cc2ccc(O)cc2)NC(=O)[C@H](C(C)C)NC(=O)[C@@H](NC(=O)[C@@H](NC(=O)[C@H](CC(N)=O)NC(=O)[C@H](Cc2c[nH]c3ccccc23)NC(=O)[C@H](C)NC(=O)[C@H](Cc2ccccc2)NC(=O)CNC(=O)[C@H](CCCCN)NC(=O)[C@H](Cc2ccccc2)NC(=O)[C@H](Cc2ccccc2)NC(=O)[C@H](CCCCN)NC(=O)OCC2c3ccccc3-c3ccccc32)C(C)C)CSSC[C@@H](C(=O)N[C@@H](Cc2c[nH]cn2)C(=O)N[C@@H](CCCNC(=N)N)C(=O)N[C@@H](CCCNC(=N)N)C(=O)N[C@@H](C)C(=O)N[C@@H](CC(N)=O)C(N)=O)NC(=O)[C@H](C(C)C)NC(=O)[C@H](CCCNC(=N)N)NC1=O	CCK-8	–	up to 128 µM, 12 h	viability	> 90%
Cc1ccc(C(C)C)c(OC(=O)COC(=O)Cn2cnc3c2c(=O)n(C)c(=O)n3C)c1	cell growth or viability, MTT	–	50 µM, 24 h	viability	89%
